Measurements collected from several papers.
Numbered parts are unrelated; each lists some results of a single study.

Series 1 — technique: universal PBM; molecule type: double-stranded DNA, one strand shown; matrix: in vitro; tested at: 600 nM; reading: higher = stronger binding
Target: Sal-like protein 4, full length isoform A (SALL4, Homo sapiens, UniProt Q9UJQ4, residues 1-1053)
Sequence of UniProt Q9UJQ4 (whole entry, looked up): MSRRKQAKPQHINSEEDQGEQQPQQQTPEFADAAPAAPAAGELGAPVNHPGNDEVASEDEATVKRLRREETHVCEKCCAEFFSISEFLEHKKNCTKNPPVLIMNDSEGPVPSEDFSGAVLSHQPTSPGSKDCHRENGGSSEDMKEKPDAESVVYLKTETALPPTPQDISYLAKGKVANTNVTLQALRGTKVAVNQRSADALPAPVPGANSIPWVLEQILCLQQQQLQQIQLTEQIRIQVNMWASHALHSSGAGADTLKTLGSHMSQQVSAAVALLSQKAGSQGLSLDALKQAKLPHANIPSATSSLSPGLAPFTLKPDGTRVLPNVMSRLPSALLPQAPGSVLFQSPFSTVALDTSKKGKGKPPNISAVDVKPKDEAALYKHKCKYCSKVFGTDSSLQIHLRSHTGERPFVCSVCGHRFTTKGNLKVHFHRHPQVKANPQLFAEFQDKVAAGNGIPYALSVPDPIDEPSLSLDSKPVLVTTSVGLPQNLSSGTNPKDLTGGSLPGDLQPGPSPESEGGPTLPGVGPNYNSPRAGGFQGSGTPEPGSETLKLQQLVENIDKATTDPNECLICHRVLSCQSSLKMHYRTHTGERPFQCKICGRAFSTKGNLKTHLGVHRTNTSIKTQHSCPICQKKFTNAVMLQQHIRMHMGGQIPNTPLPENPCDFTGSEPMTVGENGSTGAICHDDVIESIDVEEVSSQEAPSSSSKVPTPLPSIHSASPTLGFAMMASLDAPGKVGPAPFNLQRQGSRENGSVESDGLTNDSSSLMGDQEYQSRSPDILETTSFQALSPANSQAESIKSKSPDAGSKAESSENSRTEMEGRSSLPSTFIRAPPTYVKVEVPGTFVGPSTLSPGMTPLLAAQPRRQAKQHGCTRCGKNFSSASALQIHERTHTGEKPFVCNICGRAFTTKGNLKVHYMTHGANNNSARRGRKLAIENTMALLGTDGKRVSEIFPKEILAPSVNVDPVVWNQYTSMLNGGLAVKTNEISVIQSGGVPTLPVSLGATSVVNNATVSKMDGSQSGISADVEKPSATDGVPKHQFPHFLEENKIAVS
Notes: 8-mer, flanks averaged, mean of replicates
| Oligonucleotide | E-score |
| --- | --- |
| CCACGATC | 0.00823 |
| CCACGTGA | -0.144 |
| ACAAGTAC | 0.08 |
| CCGTCAAA | 0.00232 |
| CCTTCTCC | -0.216 |
| TACCCAGA | 0.105 |
| ACATAAGA | 0.283 |
| CTCGGGAC | -0.237 |
| CCGATCGC | -0.0673 |
| GTACTCAA | 0.0931 |
| ATGGATGC | 0.0787 |
| GTCCGGAC | -0.141 |
| TAGCGAGA | -0.00467 |
| AGGTGCCC | -0.324 |
| CCGCTTGA | -0.136 |
| GCATGACA | 0.0383 |
| AAATCATG | 0.252 |
| CCCGGTGC | -0.375 |
| ATTCCAGC | -0.0653 |
| GAACCGAA | 0.0316 |
| CCTCTGCG | -0.338 |
| AAAGCGTA | 0.031 |
| CCTGGACG | -0.385 |
| TAAAGGCA | 0.125 |
| AGGCTACG | -0.244 |

Series 2 — technique: protein-binding microarray; molecule type: double-stranded DNA, one strand shown; matrix: in vitro; tested at: 250 nM; notes: 60-bp whole probe; with: salmon DNA 0.4 mg/ml; reference: random background probes; reading: higher = stronger binding; all sequences stand within: GCCTAGCAC … GTCTTGATTCGCTTGACGCTGCTG
Target: Interferon regulatory factor 7, full length, phosphomimetic (IRF7, Homo sapiens, UniProt Q92985, residues 1-503, S101K/S471D/S472D/S475D/S476D/S477D/S483D/S484D/S487D)
Construct (chain): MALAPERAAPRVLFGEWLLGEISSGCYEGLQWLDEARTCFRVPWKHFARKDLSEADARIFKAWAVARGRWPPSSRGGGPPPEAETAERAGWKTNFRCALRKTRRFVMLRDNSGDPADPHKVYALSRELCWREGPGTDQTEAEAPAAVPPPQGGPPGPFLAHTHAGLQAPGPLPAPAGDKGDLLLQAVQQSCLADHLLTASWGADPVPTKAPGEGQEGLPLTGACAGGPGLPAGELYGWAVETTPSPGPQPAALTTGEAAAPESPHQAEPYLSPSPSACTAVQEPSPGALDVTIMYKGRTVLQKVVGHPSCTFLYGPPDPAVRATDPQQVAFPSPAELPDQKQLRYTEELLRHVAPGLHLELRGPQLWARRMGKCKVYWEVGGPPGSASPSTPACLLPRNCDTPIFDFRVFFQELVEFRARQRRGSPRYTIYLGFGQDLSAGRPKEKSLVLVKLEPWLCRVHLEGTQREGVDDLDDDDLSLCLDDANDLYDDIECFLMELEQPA
| Oligonucleotide | log fluorescence [z-score] |
| --- | --- |
| GACGGACTGGGGTTTCGGAACGTGCTA | 1.92 |
| TCACACTTGTGTTTGGGACTGTGCTAG | -0.207 |
| TTATAACTGAGACTGGATTAGTGCTAG | 0.0466 |
| GACGGTATTCTACTGCTGACGTGCTAG | -0.183 |
| TTAGGACTGGGGACTTGGTTAGTGCTA | -0.599 |
| CAGAGCATGGATCTGGGAACGTGCTAG | -0.835 |
| TCATTTCTGTTTTTGCTACTGTGCTAG | 2.22 |
| TCTAATATTCATTTTATTCAGTGCTAG | 0.829 |
| GACGCTATCCTTTTCCTGACGTGCTAG | 0.661 |
| GGATGAAGCGCTTCTCGAGTGGTGCTA | -0.872 |
| ACTAGATAAGACAAAGTGATGTGCTAG | -0.161 |
| TTAGGACTGGACTATCTGTTAGTGCTA | -0.133 |
| GACGGGATCGGGTATCGGGACGTGCTA | -0.168 |
| ACTCTAATCTCACTCTGTCCGTGCTAG | 0.213 |
| GACGGTATCGGACTTGGGACGTGCTAG | -0.0413 |
| TTAGGTATCGGGTGTCGGTTAGTGCTA | -0.0258 |
| TTAGGTATGGACTATCGGTTAGTGCTA | -0.415 |
| TTAGGTATCGGGTATCTGTTAGTGCTA | 0.79 |
| TCAATTTTGTGTCTGGGACTGTGCTAG | 0.154 |
| GGTCTTCTGGACTGTTTGGTCGTGCTA | -0.244 |
| TGAAGTTTTAATAACACAGAGTGCTAG | -0.356 |
| GACGGTACCGACTTTCGGGACGTGCTA | 0.215 |
| GACGGACTGGGGACTTGGGACGTGCTA | -0.478 |
| TTGGATTTCGGGACTGGATTAGTGCTA | 0.184 |

Series 3 — technique: protein binding microarray; molecule type: double-stranded DNA, one strand shown; matrix: in vitro; tested at: not given; reference: not given; reading: higher = stronger binding
Target: Histone acetyltransferase KAT6A, winged helix 1, GST fusion (KAT6A, Homo sapiens, UniProt Q92794, residues 1-85)
Notes: 8-mer, flanks averaged, mean of 2 arrays, mostly near background
Residues (chain): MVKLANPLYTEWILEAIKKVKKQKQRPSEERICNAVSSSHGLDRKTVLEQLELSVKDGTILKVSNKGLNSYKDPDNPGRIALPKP
| Oligonucleotide | E-score |
| --- | --- |
| CTCCATTC | -0.182 |
| GCTATGAA | -0.0876 |
| AACGCCTG | -0.122 |
| CAGATGGC | -0.0282 |
| AAGTGAAT | -0.0946 |
| ACGGGGGC | 0.297 |
| CACACCGG | 0.253 |
| CCTATGCC | 0.0485 |
| TCGCCACA | 0.0435 |
| TCTTGAAA | -0.181 |
| CGTGTCGC | 0.276 |
| ACTTCACA | -0.246 |
| CCGCTAAC | 0.254 |
| ACAGGTTC | -0.178 |
| ACCAAGCG | 0.205 |
| CAAACGAC | -0.148 |

Series 4 — technique: RNA Bind-n-Seq; molecule type: RNA; matrix: in vitro; tested at: 365 nM; reference: no-protein control; reading: higher = stronger binding
Target: RNA binding protein fox-1 homolog 2, RRM domain, GST-SBP tag (RBFOX2, Homo sapiens, UniProt O43251-10, residues 100-194)
Notes: natural RNA segment, single round, ends assumed
Target sequence (chain): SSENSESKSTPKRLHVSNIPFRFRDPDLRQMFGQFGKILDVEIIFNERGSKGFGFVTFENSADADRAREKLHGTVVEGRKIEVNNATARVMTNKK
| Oligonucleotide | RBNS enrichment (R) |
| --- | --- |
| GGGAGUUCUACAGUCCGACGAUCUCUGUGGUCAAAUUCAGACUACAGGAGGUCUUUUUGAAUCAUUAUAGUUAGAAGAAGAAUCCAGUUUCUGCCUGUGAACUUAUUUGACUUUAGAUUGUCUCAUCUUGUGAUGGAAUUCUCGGGUGCCAA | 0.481 |
| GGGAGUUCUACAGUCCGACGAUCAGCACAAGCCUAAAGCAAGGUCAAGCAGAUGGCAAAACCGAAUUUGCCUGCAAAGAAAUCUAUUUAACUGAAUCAGCCCAUAAUAUUUGAGGCACGAGGUUACUGUGAUUUGGAAUUCUCGGGUGCCAA | 0.27 |
| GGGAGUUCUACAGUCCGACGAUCAAUUCCUGCACCUGGAGGAGUUCCCCAACCCCCGUGUUUGCGGGAGGAAGCAUUUGUACAGUGGCUAAUUUAAGGGGAGUGGGAGACCCUGUCACCCUGAGCACUCUGCGUGGAAUUCUCGGGUGCCAA | 0.763 |
| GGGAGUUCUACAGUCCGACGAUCCUUUAAAAUGUUGUAUUUUUUCCCUGAAAUAAACUUUUAUGAUUUAAUGUCUUGGAAAAAGACUCACAUGAAAAGUGGCUUUUAUAUUUGGUAGGAUAAAGCCAUUGUCCUGGAAUUCUCGGGUGCCAA | 0.54 |
| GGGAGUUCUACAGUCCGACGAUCCGGAUUAAUUUGCAUCUGAAAUAGGAAACAAGUGAAAGCAUAUGGGUUAGAUGUUGCCAUGUGUUUUAGAUGGUUUCUUGCAAGCAUGCUUGUGAAAAUGUGUUCUCGGAUGGAAUUCUCGGGUGCCAA | 0.862 |
| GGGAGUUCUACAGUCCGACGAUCUCCAAAUCCACUUUUACUGAAAAAUACUGUACAUGUGUAAAAUGUUCAGUUGUUUUUUUGUAAAAUAUAGUAGAACGGUUGUAACUGAUACUGGCCAAAAUCAAUGUUAUUGGAAUUCUCGGGUGCCAA | 0.356 |
| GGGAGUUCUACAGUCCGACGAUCUCAUGUUUUGUUAAUCCGCUUCACUAAAUUGGACCUUCACAUAUCUAAAAAGCUCUGAAGUGUUUGUAUAUUUGAAAUACCUCAAUAAAGAGAGAGCUCAUUGACUGUAAUGGAAUUCUCGGGUGCCAA | 0.403 |
| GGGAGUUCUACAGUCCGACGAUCAAGGACCUACUGCAUGCCUGUCCCCAGGGCCCCGGUGGAAGGAAGGCAGCGCCUGCUCUUCCUUAACUCAGCCCAUCAUCUGAAAAUUCAGAAGUGAACCAAGGGUUAGAUGGAAUUCUCGGGUGCCAA | 22.3 |
| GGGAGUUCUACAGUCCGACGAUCACAAAUAUUGCUGUUCCAUGUUCUCCACUUUCAUUUUCCACUACAAAUGAAAAGCAAUUUUUGAGACUGAAUCUGUUGCUAUUUUAAAGGUUAUUGUGGGAAACUGAGCUUGGAAUUCUCGGGUGCCAA | 0.483 |
| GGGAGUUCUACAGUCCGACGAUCGCUCGGAAGUAGCUCUAGUCCUGCGAGCAGGCACUUGGAACAGCAGUCUGUAAGCAGGAGUCAUUGCCAUGUUGCCCUCCCUGCUGGUGUUACUGUGUUCCCUUAGAGCAUGGAAUUCUCGGGUGCCAA | 0.754 |
| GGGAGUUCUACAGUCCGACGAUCCCUCUCCCCUGUGACUGCAGCUGCUGAGCCAUAAAGUUGGACCAUAUGACACAAGGCCAAUGGGGACCGGAGUACCAUGGCUCCUGUCCUUGGAUGGUCUCUUGUCCCUGUGGAAUUCUCGGGUGCCAA | 0.321 |
| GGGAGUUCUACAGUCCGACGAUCUGAAGAUCCAGUUUCAUACAAACAUUUGUAUGAUGUGAAUAGUUGAUGGCAUUUUUUUGUCAUGAAAAAAAAAUAAUGUAAAUCACAGACUUUUGCCAAAGCUCUUAUUUUGGAAUUCUCGGGUGCCAA | 0.948 |

Series 5 — technique: aptamer microarray, sandwich; molecule type: DNA with 2'F-ANA; matrix: in vitro; tested at: 200 nM; with: Cy3 exosite-II aptamer, 400 nM; reading: higher = stronger binding; oligonucleotide: GGTTGGTGTGGTTGG
Target: Prothrombin, mature alpha-thrombin (F2, Homo sapiens, UniProt P00734)
Notes: whole 15-mer aptamer, many near background
| Modification | mean fluorescence intensity [a.u.] |
| --- | --- |
| 2'F-ANA at 1 3 5 7 13 | 58.4 |
| 2'F-ANA at 5 8 9 10 13 | 42.2 |
| 2'F-ANA at 1 2 3 4 5 9 15 | 61.1 |
| 2'F-ANA at 1 2 3 6 7 9 10 12 14 | 58.4 |
| 2'F-ANA at 1 3 4 5 7 8 13 14 15 | 46.7 |
| 2'F-ANA at 1 2 3 4 6 7 11 13 14 | 53.6 |
| 2'F-ANA at 3 5 10 12 14 15 | 53.2 |
| 2'F-ANA at 1 2 3 4 7 8 10 14 | 48.4 |
| 2'F-ANA at 3 4 5 8 9 13 | 70.6 |
| 2'F-ANA at 2 3 4 5 8 9 10 12 13 14 | 49.8 |
| 2'F-ANA at 1 2 3 10 13 | 59.9 |
| 2'F-ANA at 3 4 5 6 7 9 10 11 13 | 52.6 |
| 2'F-ANA at 2 5 7 9 10 11 13 15 | 44.9 |
| 2'F-ANA at 2 5 7 8 9 10 11 12 15 | 52.5 |
| 2'F-ANA at 1 2 3 6 8 9 | 258 |
| 2'F-ANA at 4 5 9 11 13 14 15 | 43.9 |

Mixed results
| Substance | target | test | system | conditions | scale | endpoint | value |
| --- | --- | --- | --- | --- | --- | --- | --- |
| PhoQ, residues 284 288 289 292 302 303 GLASVI | PhoP, residues 12 14 15 18 19 HLGGL (Escherichia coli, UniProt P23836) | Sort-seq, item: YFP reporter | E. coli | PhoQ-PhoP variant library, with: 10 µM Mg2+ | reference: high Mg2+ state, higher = stronger signaling | fold induction | 1.33 |

A few entries again (series 1):
| Oligonucleotide | E-score |
| --- | --- |
| ATGGATGC | 0.0787 |
| GTCCGGAC | -0.141 |
| TAGCGAGA | -0.00467 |
| AGGTGCCC | -0.324 |
| CCGCTTGA | -0.136 |
| GCATGACA | 0.0383 |
| AAATCATG | 0.252 |
